{"data": "Experimental data collected from several papers", "note": "Each numbered part is a random draw from the data of one study; scales do not carry over between parts. Substitutions count along the parent as printed.", "UniProt Q99759, sequence (whole entry, looked up)": "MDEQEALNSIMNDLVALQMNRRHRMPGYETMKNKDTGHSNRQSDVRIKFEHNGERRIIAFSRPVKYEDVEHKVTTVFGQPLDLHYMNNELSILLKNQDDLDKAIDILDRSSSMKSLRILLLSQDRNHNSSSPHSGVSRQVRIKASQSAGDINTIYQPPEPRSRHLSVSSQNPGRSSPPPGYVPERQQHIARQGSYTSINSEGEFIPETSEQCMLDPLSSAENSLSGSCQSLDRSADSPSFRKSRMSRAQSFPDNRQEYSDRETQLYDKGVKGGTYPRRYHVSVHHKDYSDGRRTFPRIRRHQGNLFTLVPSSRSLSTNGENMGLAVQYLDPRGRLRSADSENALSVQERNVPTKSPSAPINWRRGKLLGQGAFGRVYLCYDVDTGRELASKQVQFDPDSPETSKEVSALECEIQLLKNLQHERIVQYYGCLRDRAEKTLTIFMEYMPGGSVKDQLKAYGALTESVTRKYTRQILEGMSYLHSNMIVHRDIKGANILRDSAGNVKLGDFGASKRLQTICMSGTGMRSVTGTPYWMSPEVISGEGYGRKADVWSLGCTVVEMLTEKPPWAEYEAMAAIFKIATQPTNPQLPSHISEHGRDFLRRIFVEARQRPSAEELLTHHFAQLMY"}
{"data": "Block 1", "target": "ABI1, truncated, D143A, DHFR fusion (Arabidopsis thaliana)", "technique": "DHFR PCA, deep sequencing", "sample": "yeast", "notes": "methotrexate growth selection, single substitutions", "with": "(+)-ABA 200 µM", "reference": "wild-type fitted maximum", "reading": "higher = stronger binding", "starting sequence": "PYL1, truncated, DHFR fusion (Arabidopsis thaliana); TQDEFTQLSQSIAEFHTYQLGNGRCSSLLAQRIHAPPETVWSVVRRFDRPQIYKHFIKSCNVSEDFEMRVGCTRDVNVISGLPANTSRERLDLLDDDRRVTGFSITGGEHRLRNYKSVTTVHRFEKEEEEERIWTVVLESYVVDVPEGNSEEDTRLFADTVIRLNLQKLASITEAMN"}
{"Substitution": "T120Y", "relative binding score [%]": -0.676}
{"Substitution": "C72Q", "relative binding score [%]": 102}
{"Substitution": "A13W", "relative binding score [%]": 80.1}
{"Substitution": "L112T", "relative binding score [%]": 1.37}
{"Substitution": "E152D", "relative binding score [%]": 97.6}
{"Substitution": "R74W", "relative binding score [%]": -8.21}
{"Substitution": "E14L", "relative binding score [%]": 90.5}
{"Substitution": "T39Q", "relative binding score [%]": 103}
{"data": "Block 2", "target": "Serine/threonine-protein kinase MARK1 (MARK1, Homo sapiens, UniProt Q9P0L2)", "effect on": "enzyme activity", "mode": "inhibitor", "concentration": "0.5 µM", "reference": "control", "UniProt Q9P0L2, sequence (whole entry, looked up)": "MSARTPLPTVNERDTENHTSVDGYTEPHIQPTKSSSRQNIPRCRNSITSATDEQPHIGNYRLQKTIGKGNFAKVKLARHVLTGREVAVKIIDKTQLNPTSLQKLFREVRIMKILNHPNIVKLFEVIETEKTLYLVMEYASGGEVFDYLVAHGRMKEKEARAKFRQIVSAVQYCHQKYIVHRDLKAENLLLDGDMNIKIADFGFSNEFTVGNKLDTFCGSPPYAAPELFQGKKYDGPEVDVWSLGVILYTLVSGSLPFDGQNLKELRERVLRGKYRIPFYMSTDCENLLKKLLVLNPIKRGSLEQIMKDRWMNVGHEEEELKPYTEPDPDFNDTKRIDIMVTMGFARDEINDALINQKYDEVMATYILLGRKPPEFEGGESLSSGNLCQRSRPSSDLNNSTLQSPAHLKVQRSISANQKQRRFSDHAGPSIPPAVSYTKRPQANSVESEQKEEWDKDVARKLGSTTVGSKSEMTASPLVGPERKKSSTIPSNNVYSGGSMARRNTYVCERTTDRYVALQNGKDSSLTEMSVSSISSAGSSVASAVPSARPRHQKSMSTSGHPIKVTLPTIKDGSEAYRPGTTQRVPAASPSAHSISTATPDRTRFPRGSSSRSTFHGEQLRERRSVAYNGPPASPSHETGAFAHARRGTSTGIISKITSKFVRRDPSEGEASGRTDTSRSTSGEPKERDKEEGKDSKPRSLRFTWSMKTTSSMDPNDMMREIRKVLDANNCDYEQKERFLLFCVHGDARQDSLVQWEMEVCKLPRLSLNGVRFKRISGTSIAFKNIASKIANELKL"}
{"SMILES": "Cc1cccc(-c2[nH]c(C(C)(C)C)nc2-c2ccc3c(c2)OCO3)n1", "remaining activity [%]": 85.1}
{"SMILES": "Cn1c2ccccc2c2c3c(c4c5ccccc5n(CCC#N)c4c21)CNC3=O", "remaining activity [%]": 20.8}
{"SMILES": "Cc1ccc(NC(=O)c2ccc(CN3CCN(C)CC3)cc2)cc1Nc1nc(-c2cccnc2)cs1", "remaining activity [%]": 86.9}
{"SMILES": "Nc1ccc2ncnc(NCCc3ccc(Oc4ccccc4)cc3)c2c1", "remaining activity [%]": 103}
{"SMILES": "Nc1[nH]nc2nc3ccccc3nc12", "remaining activity [%]": 95.7}
{"SMILES": "COc1cc2nccc(Oc3ccc(NC(=S)NC(=O)c4ccccc4C)cc3)c2cc1OC", "remaining activity [%]": 91.4}
{"SMILES": "O=C1NC(=O)C(c2cn(CCCn3ccnc3)c3ccccc23)=C1Nc1ccccc1", "remaining activity [%]": 93.6}
{"SMILES": "O=C1NC(=O)C(c2cn(CCCO)c3ncccc23)=C1c1cnccn1", "remaining activity [%]": 95}
{"SMILES": "Nc1ncnc2n[nH]c(Nc3ccc(F)cc3)c12", "remaining activity [%]": 93.8}
{"SMILES": "CN(C)c1ccc(C=C2C(=O)Nc3ccccc32)cc1", "remaining activity [%]": 97.3}
{"SMILES": "O=c1c2ccccc2[nH]c(=S)n1CCN1CCC(=C(c2ccc(F)cc2)c2ccc(F)cc2)CC1", "remaining activity [%]": 99.7}
{"SMILES": "Cc1nc(-c2ccccc2)c(-c2ccncc2)o1", "remaining activity [%]": 92.5}
{"SMILES": "CNC(=O)c1cc(Oc2ccc(NC(=O)Nc3ccc(Cl)c(C(F)(F)F)c3)cc2)ccn1", "remaining activity [%]": 80.3}
{"SMILES": "Oc1ccc(-c2nc(-c3ccncc3)c(-c3ccc(F)cc3)[nH]2)cc1", "remaining activity [%]": 101}
{"data": "Other studies, line by line"}
{"Structure (SMILES)": "CCC(Oc1ccccc1C)C(=O)Nc1ccccc1C(=O)NC (centres unmarked)", "system": "mouse, microsomes or S9", "setting": "2 µM, 0.5 h", "quantity": "remaining compound", "value": "2.66%"}
{"Structure (SMILES)": "COc1ccc(-c2ccc(OCc3cc(C(=O)NS(=O)(=O)c4ccccc4C)oc3C)cc2)nc1", "tested on": "mouse MPNST tumor cells", "assay": "high-content immunofluorescence imaging, item: nuclear SOX9", "setting": "10 µM, 12 h, mean of 2 replicates", "scale": "reference: DMSO control, higher = more nuclear SOX9", "quantity": "nuclear SOX9 intensity", "value": "102 % of DMSO"}
{"Structure (SMILES)": "COc1ccnc(C[S+]([O-])c2nc3ccc(OC(F)F)cc3[nH]2)c1OC (centres unmarked)", "tested on": "A-375", "setting": "100 µM, 36 h", "quantity": "viability", "value": "99.8%"}
{"Structure (SMILES)": "COc1ccc([C@@H](C)C(=O)c2ccc(O)cc2O)cc1", "system": "mouse, microsomes or S9", "setting": "2 µM, 0.5 h", "quantity": "remaining compound", "value": "31.1%"}
{"Structure (SMILES)": "CN([C@@H]1CCc2c(CC(=O)O)c3ccccc3n2C1)S(=O)(=O)c1ccc(F)cc1", "tested on": "Mitogen-activated protein kinase kinase kinase 3 (MAP3K3, Homo sapiens, UniProt Q99759)", "assay": "cell-free assay, competition with immobilised ligand", "setting": "1 µM", "quantity": "remaining binding", "value": "100%"}
{"Structure (SMILES)": "C/C(O)=C(\\C#N)C(=O)Nc1ccc(C(F)(F)F)cc1", "tested on": "A-375", "setting": "100 µM, 36 h", "quantity": "viability", "value": "59.8%"}
{"Structure (SMILES)": "O=C(Nc1nc2cc(C(F)(F)F)cc(NC3CC3)n2n1)c1cccnc1", "tested on": "mouse MPNST tumor cells", "assay": "high-content immunofluorescence imaging, item: nuclear SOX9", "setting": "10 µM, 12 h, mean of 2 replicates", "scale": "reference: DMSO control, higher = more nuclear SOX9", "quantity": "nuclear SOX9 intensity", "value": "147 % of DMSO"}
